Assay results pooled from the literature.
Each line is one published result; not all experiments were run side by side. ± marks the error that the study gave.
CA9: Carbonic anhydrase 9 (CA9, Homo sapiens, UniProt Q16790)
Tmem97: Sigma intracellular receptor 2 (Tmem97, Rattus norvegicus, UniProt Q5U3Y7)
UniProt Q5U3Y7, sequence (whole entry, looked up): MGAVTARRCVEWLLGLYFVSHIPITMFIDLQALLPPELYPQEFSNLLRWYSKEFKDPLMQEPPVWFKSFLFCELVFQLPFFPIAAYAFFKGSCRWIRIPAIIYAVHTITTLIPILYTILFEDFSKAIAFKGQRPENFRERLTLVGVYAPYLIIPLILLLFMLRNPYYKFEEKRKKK
ADH1 H49Q: ADH1 (Saccharomyces cerevisiae, UniProt P00330, H49Q)
UniProt P00330, sequence (whole entry, unmodified, looked up): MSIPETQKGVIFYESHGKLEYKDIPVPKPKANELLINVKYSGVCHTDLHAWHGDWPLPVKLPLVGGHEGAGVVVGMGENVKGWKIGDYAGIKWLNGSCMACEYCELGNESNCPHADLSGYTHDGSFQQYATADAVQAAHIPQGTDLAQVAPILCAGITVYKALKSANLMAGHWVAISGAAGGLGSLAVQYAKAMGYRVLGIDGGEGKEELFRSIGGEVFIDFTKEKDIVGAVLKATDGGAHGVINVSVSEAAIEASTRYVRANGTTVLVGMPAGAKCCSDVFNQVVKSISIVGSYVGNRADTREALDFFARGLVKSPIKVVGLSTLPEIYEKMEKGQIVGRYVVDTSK
Gria2: Glutamate receptor 2 (Gria2, Rattus norvegicus, UniProt P19491)
UniProt P28566, sequence (whole entry, looked up): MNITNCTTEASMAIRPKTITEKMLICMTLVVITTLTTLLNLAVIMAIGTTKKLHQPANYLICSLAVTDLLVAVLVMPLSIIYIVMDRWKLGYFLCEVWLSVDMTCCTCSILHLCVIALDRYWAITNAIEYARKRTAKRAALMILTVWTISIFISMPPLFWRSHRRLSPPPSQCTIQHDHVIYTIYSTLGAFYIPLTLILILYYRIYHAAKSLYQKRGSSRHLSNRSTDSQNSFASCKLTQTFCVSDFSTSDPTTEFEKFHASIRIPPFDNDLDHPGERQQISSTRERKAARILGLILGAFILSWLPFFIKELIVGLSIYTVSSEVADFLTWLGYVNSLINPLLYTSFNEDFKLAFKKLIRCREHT
UniProt P19491, sequence (whole entry, looked up): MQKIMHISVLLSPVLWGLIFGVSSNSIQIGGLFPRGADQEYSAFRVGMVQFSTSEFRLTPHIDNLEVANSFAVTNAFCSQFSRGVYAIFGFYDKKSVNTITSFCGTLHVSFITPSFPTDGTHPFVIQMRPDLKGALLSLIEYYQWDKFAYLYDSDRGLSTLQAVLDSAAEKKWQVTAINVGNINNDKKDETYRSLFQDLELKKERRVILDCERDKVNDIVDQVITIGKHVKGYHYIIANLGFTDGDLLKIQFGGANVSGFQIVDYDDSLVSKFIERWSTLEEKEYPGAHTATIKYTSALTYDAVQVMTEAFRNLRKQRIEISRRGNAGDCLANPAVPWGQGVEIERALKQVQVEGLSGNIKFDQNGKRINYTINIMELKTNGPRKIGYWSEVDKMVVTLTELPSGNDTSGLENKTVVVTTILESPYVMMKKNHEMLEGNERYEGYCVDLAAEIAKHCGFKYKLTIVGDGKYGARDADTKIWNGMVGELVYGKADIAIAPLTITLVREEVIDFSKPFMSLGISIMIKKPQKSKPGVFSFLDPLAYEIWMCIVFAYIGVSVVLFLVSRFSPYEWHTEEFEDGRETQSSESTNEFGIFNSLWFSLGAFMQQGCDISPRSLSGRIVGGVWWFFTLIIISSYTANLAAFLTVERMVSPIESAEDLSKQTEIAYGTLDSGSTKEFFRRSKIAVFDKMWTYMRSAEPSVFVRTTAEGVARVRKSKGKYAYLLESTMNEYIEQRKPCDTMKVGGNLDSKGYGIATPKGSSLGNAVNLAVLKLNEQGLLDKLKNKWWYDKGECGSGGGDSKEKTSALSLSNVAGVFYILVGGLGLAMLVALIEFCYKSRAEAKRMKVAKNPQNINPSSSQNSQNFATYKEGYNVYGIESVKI
UniProt P22756, sequence (whole entry, unmodified, looked up): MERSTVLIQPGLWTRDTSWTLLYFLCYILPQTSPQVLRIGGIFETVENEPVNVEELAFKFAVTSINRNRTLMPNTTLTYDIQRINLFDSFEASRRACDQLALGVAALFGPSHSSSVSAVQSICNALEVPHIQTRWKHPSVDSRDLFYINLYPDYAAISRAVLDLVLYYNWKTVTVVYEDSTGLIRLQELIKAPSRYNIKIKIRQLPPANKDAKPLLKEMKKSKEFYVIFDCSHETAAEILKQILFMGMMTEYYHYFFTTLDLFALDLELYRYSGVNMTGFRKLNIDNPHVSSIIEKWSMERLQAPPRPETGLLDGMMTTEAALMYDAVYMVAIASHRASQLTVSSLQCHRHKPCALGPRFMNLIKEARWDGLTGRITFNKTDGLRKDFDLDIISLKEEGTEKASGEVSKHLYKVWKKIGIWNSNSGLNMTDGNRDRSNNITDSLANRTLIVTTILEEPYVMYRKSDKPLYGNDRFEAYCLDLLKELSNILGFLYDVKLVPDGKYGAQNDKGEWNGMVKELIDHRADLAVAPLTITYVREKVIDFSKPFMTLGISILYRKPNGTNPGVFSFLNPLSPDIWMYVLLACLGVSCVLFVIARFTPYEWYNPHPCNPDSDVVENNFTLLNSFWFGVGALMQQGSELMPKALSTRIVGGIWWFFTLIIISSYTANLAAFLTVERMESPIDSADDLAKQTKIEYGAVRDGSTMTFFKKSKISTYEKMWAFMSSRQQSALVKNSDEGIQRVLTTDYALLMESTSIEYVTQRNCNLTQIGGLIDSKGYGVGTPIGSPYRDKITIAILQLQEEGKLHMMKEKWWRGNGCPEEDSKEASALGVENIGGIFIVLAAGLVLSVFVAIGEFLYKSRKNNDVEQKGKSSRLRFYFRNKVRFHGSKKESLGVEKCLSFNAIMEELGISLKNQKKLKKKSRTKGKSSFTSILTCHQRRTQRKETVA
UniProt Q05421, sequence (whole entry, looked up): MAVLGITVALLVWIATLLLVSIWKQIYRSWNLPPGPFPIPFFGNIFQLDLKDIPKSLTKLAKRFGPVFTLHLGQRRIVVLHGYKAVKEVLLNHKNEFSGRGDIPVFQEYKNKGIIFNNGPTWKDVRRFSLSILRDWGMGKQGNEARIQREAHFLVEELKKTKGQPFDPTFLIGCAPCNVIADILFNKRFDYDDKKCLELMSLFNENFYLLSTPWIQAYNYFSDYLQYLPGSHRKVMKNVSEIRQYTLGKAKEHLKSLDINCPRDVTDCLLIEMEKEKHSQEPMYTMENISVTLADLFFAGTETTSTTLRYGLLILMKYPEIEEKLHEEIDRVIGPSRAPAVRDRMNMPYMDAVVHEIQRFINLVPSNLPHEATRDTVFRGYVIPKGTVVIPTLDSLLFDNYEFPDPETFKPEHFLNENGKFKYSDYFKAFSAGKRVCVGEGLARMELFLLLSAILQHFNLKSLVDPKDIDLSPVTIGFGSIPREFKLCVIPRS
UniProt Q60492, sequence (whole entry, looked up): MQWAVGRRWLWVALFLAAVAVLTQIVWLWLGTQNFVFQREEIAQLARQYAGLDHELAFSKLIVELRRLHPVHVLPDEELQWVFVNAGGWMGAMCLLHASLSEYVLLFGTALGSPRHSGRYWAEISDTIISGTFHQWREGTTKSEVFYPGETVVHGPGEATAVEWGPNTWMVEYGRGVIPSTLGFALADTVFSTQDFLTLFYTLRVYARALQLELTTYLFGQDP
UniProt P23975, sequence (whole entry, looked up): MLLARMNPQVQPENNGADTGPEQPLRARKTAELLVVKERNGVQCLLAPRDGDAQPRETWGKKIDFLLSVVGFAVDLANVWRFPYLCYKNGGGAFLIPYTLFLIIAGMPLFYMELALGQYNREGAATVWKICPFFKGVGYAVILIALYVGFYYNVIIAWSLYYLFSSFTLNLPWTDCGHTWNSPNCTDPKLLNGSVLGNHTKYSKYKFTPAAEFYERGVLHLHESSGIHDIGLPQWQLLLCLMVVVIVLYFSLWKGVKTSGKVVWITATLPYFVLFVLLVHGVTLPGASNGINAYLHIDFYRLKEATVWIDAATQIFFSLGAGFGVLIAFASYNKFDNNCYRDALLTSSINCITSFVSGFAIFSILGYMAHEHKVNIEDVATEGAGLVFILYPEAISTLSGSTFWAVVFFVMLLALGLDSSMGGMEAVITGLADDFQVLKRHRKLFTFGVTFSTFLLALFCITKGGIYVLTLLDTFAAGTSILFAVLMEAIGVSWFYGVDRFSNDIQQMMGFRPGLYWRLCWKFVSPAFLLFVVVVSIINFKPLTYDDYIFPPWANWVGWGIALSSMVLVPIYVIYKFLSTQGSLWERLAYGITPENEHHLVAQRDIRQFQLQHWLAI
UniProt P05067, sequence (whole entry, looked up): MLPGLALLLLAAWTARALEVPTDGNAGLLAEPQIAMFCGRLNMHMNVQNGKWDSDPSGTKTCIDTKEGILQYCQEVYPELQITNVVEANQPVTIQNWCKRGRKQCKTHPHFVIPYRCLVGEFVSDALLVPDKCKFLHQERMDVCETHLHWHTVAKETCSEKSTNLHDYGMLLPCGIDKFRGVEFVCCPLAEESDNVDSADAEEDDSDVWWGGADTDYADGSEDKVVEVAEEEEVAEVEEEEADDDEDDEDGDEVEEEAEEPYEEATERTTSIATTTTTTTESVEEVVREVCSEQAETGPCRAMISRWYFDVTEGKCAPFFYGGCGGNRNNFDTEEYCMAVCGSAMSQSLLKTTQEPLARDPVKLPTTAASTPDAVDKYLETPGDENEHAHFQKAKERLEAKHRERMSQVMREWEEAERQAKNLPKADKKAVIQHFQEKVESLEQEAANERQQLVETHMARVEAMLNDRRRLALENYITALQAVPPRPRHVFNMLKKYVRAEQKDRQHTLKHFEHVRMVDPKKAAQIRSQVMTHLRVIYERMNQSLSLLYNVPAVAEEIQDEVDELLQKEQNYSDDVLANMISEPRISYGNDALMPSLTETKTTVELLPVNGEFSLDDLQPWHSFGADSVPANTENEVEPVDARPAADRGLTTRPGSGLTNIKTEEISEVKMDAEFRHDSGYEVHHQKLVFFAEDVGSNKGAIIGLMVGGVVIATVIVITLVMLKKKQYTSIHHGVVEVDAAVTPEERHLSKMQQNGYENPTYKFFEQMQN

| SMILES | target | test | system | setting | Ki [µM] |
| --- | --- | --- | --- | --- | --- |
| Oc1ccc(N=Nc2ccc(-c3nc4ccccc4s3)cc2)c2cccnc12 | Amyloid-beta precursor protein, Aβ40 fibrils (APP, Homo sapiens, UniProt P05067) | binding to Aβ fibrils, thioflavin T competition |  | Aβ 5 µM, with: ThT 2 µM | 1.1 |
| O=C(Nc1ccc2c(c1)C=CCP(=O)(O)O2)Nc1ccccc1Br | CA9 |  |  |  | 0.0469 |
| COCC1OC2CC(CC(N)C(=O)O)(C(=O)O)OC2C(O)C1O (centres unmarked) | Glutamate receptor ionotropic, kainate 1 (Rattus norvegicus, UniProt P22756, del402-416) | [3H]kainate displacement | HEK-293T/17 membranes |  | 0.01 |
| CC1=Cc2ccccc2C12CCN(C1Cc3ccccc3CC1O)CC2 (racemic) | Tmem97 | radioligand binding | rat liver | with: [3H]DTG, 1 µM dextrallorphan mask | 1.7 ± 0.6 |
| NC(=O)c1ccc[n+]([C@@H]2O[C@H](COP(=O)([O-])OP(=O)(O)OC[C@H]3O[C@@H](n4cnc5c(N)ncnc54)[C@H](O)[C@@H]3O)[C@@H](O)[C@H]2O)c1 | ADH1 H49Q | enzyme activity, inhibitor |  | pH 7.3, 30 °C | 410 |
| O=C(Nc1cccc(C(F)(F)F)c1)Nc1ccc2c(c1)C=CCP(=O)(O)O2 | CA9 |  |  |  | 0.0319 |
| Cc1cccc(C)c1N1C(=O)CNC2(CCN(C)CC2)C1=O | Tmem97 |  |  |  | > 10 |
| OCC(F)(F)F | ADH1 H49Q | inhibitor |  |  | 33000 |
| O=C(Nc1ccc(I)cc1)Nc1ccc2c(c1)C=CCP(=O)(O)O2 | CA9 |  |  |  | 0.036 |
| COc1cc2c(cc1OC)CN(CCc1ccc(NC(=O)c3cccc4c(=O)c5cccc(OC)c5[nH]c34)cc1)CC2 | SLC6A2 (Homo sapiens, UniProt P23975) | binding |  |  | 0.878 |
| Cc1ccc(C(=O)Nc2ccc3c(c2)C=CCP(=O)(O)O3)cc1 | CA9 |  |  |  | 0.0205 |
| NC(CC1(C(=O)O)CC2OC(CO)C(O)C(N)C2O1)C(=O)O (centres unmarked) | Gria2 | [3H]AMPA displacement | HEK-293T/17 membranes |  | > 10 |
| Cc1cccc(C)c1N1C(=O)[C@H](CC2CNc3ccccc32)NC2(CCN(C)CC2)C1=O (some centres unmarked) | Tmem97 |  |  |  | > 10 |
| Cn1c(=O)n(CCCCN2CCC3(CC2)OCc2ccccc23)c2ccccc21 | Sigma-2 receptor (Cavia porcellus, UniProt H0V073) | binding, high-affinity site | guinea pig brain membranes | with: 200 nM [3H]DTG, (+)-pentazocine present | 0.00231 |
| C=CC(O)CO (centres unmarked) | Cytochrome P450 2E1 (Cyp2e1, Mus musculus, UniProt Q05421) | 4-nitrophenol oxidation, inhibitor | B6C3F1 mouse, liver microsomes | 30 min, pH 7.4 | 830 |
| O=C(Nc1ccc(Cl)cc1)Nc1ccc2c(c1)C=CCP(=O)(O)O2 | CA9 |  |  |  | 0.0548 |
| O[C@@H]1CCCC[C@H]1N1CCC(c2ccccc2)CC1 (racemic) | Tmem97 | radioligand binding | rat liver | with: [3H]DTG, 1 µM dextrallorphan mask | 0.24 ± 0.01 |
| COc1ccc(NC(=O)Nc2ccc3c(c2)C=CCP(=O)(O)O3)cc1 | CA9 |  |  |  | 0.0053 |
| NC(CC1(C(=O)O)CC2OC(CO)C(O)C(O)C2O1)C(=O)O (centres unmarked) | Gria2 | [3H]AMPA displacement | HEK-293T/17 membranes |  | ~10 |
| O=C(Nc1ccc(C(F)(F)F)cc1)Nc1ccc2c(c1)C=CCP(=O)(O)O2 | CA9 |  |  |  | 0.0427 |
| Nc1nc2ncc(CNc3ccc(C(=O)N[C@@H](CCC(=O)O)C(=O)O)cc3)nc2c(=O)[nH]1 | Proton-coupled folate transporter, E247R; ThTr1 chimera (Homo sapiens, UniProt Q96NT5) | [3H]methotrexate uptake, inhibitor, Dixon plot | transfected cells tp-E247R | pH 5.5, with: [3H]methotrexate 0.5 µM | 0.6 ± 0.12 |
| O=C(Nc1ccccc1)Nc1ccc2c(c1)C=CCP(=O)(O)O2 | CA9 |  |  |  | 0.0349 |
| Cc1ccc2c(c1)C=CC21CCN(C2Cc3ccccc3CC2O)CC1 (racemic) | Tmem97 | binding, radioligand displacement | rat liver membranes | with: [3H]DTG, dextrallorphan 1 µM masking | 0.37 ± 0.15 |
| CN1CCC2=C(C1)c1ccccc1Cc1ccccc12 | HTR1E (Homo sapiens, UniProt P28566) | binding |  |  | 0.0293 |
| O=C(O)COP(=O)(O)O | Triosephosphate isomerase (Trypanosoma brucei, UniProt Q385L6, I172A/P168A) |  |  |  | 840 |
| O=[As](O)(O)c1ccc(Cc2ccc([As](=O)(O)O)cc2)cc1 | Autotaxin (ENPP2, Homo sapiens, UniProt Q13822) | lysoPLD activity |  | with: FS-3 | 0.24 |
| CCC(CC)(NC(=O)c1ccc(C2CC2)c(Cc2ccc(F)cc2)n1)C(=O)NCCOCCOCCNC(=O)c1ccc2c(c1)C1(OC2=O)c2ccc(N(C)C)cc2[Si](C)(C)c2cc(N(C)C)ccc21 | CNR2 (Homo sapiens, UniProt P34972) | binding, [3H]CP55940 displacement | CHO cell membranes |  | 0.684 |
| Cc1ccc2c(c1)C1(C=C2)CCN(C2Cc3ccccc3CC2O)CC1 (racemic) | Tmem97 | radioligand binding | rat liver | with: [3H]DTG, 1 µM dextrallorphan mask | 0.62 ± 0.26 |
| OC(c1ccc(F)cc1)C(F)(F)CCN1CCC(O)(c2ccc(Cl)cc2)CC1 (racemic) | SIGMAR1 (Cavia porcellus, UniProt Q60492) |  |  |  | 0.0018 ± 0.00052 |
